Assay results collected from several papers.
Parts stem from different laboratories: compare values within a part only. Substitutions count along the parent as printed.

Set 1
Target: Prothrombin, mature alpha-thrombin (F2, Homo sapiens, UniProt P00734)
Technique: aptamer microarray, sandwich
Molecule type: DNA with 2'F-ANA
Sample: in vitro
Concentration: 200 nM
Notes: whole 15-mer aptamer, many near background
With: Cy3 exosite-II aptamer, 400 nM
Direction: higher = stronger binding
Measurement: mean fluorescence intensity
Sequence: GGTTGGTGTGGTTGG
2'F-ANA at 3 4 5 7 8 11 12 14: 56.6 a.u.
2'F-ANA at 1 5 7 11 12 13 15: 69.5 a.u.
2'F-ANA at 1 5 7 8 9 11 12 13 14: 52.4 a.u.
2'F-ANA at 1 2 4 5 7 8 12 15: 114 a.u.
2'F-ANA at 1 2 3 4 9 11 12 14: 86.5 a.u.

Set 2
Target: CCNB3, cyclin fold, Cln2 fusion (human)
Technique: yeast growth competition, sequencing
Sample: yeast
Notes: weak parent motif
Baseline: not given
Direction: higher = stronger binding
Measurement: normalised enrichment score
Starting sequence: RB1 docking peptide (human); PKPLKKLRFDIEG; partner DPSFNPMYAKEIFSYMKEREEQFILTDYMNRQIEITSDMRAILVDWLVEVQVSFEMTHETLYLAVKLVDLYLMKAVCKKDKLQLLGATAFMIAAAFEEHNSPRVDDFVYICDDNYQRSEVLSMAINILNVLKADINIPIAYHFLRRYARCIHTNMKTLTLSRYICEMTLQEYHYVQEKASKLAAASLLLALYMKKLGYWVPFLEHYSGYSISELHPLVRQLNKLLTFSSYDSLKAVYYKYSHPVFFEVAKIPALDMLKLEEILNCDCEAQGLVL
E12C: 0.0779
P3H: -0.614
L4Q: 0.097
P3N: -0.399
K2V: 0.581
R8C: 0.1

Set 3
Target: Histone acetyltransferase KAT6A, winged helix 1, GST fusion (KAT6A, Homo sapiens, UniProt Q92794, residues 1-85)
Technique: protein binding microarray
Molecule type: double-stranded DNA, one strand shown
Sample: in vitro
Concentration: not given
Notes: 8-mer, flanks averaged, mean of 2 arrays, mostly near background
Baseline: not given
Direction: higher = stronger binding
Measurement: E-score
Target sequence (chain): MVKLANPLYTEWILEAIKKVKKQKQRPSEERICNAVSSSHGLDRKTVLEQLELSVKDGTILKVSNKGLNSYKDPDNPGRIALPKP
ACAAAACT: -0.347
ATCCGCCA: -0.0282
GCTTGCCA: 0.012
GACTTGCC: -0.0591

Other studies, line by line
PhoQ, residues 284 288 289 292 302 303 GANMMA  fold induction (PhoP, residues 12 14 15 18 19 FWNTL (Escherichia coli, UniProt P23836); Sort-seq, refers to: YFP reporter; E. coli; PhoQ-PhoP variant library, with: 10 µM Mg2+; baseline: high Mg2+ state, higher = stronger signaling): 0.986

Excerpt of the above (set 2):
P3H: -0.614
